# Assay results from different studies.
# Several values in a cell are separate wells, animals, samples, runs or records. Numbers after ± are the reported error.
# Sequence of UniProt P08684 (whole entry, looked up): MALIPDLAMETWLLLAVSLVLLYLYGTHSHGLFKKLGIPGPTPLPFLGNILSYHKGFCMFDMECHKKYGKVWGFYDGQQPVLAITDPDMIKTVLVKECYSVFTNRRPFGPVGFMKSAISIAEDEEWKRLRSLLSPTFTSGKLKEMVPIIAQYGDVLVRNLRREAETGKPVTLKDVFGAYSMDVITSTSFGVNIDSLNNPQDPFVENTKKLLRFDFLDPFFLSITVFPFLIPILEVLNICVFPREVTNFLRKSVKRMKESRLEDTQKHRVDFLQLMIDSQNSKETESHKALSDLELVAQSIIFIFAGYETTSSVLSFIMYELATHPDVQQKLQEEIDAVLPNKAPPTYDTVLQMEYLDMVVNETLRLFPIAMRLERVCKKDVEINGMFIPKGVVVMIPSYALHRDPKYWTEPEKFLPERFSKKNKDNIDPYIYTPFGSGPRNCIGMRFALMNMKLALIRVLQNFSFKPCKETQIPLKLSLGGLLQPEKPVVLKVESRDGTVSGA
Compound,tested on,test,system,conditions,how to read,endpoint,value
O=C1C2CC3CC1CC(O)(C3)C2,THP-1,pyroptotic LDH release,,"2 µM, 40 min, added: LPS then nigericin",,inhibition,-13.6%
COc1cccc(Nc2nc(NCC3CCCO3)c3ccccc3n2)c1.Cl (centres unmarked),Renilla luciferase reporter mRNA,"in vitro translation, inhibitor",Trypanosoma cruzi translation extract,40 µM,,inhibition,74.5%
c1ccc(-c2nc3n(c2-c2ccc4sccc4c2)CCC3)nc1,Leishmania infantum,,"macrophages, MHOM/MA(BE)/67/ITMAP263, amastigote",,,IC50,540 nM and 170 nM
c1ccc(CNc2ncnc3nc[nH]c23)cc1,THP-1,pyroptotic LDH release,,"2 µM, 40 min, added: LPS then nigericin",,inhibition,20.3%
CC(C)n1ncc2c(C(=O)NCC3(C)CNC3)cc(C3CC3)nc21,Enterovirus D68,viral replication,"RD, recombinant wild-type US/MO/14-18947",10 µM,relative to: untreated,plaque area,0%
c1ccc(-c2c(-c3ccccn3)nc3n2CCC3)cc1,Leishmania infantum,,"macrophages, MHOM/MA(BE)/67/ITMAP263, amastigote",,,IC50,1830 nM and 2010 nM
C[C@H]1C[C@H]2CSC(N)=N[C@@]2(c2nc(NC(=O)c3ccc(OC(F)F)cn3)cs2)CO1,,measured: Aβ1-40,"healthy adults, plasma","540 mg single dose, 6 h post-dose",relative to: placebo,percent change from baseline,-86.9%
Cc1cc(O)c2c(c1)C(=O)c1cc(O)cc(O)c1C2=O,HK-2 co-cultured with HepaRG,MTT,,"266.67 µM, 24 h",relative to: untreated control,viability,20.4 ± 8.16%
CCN(CC)C(=O)/C(C#N)=C/c1cc(O)c(O)c([N+](=O)[O-])c1,THP-1,pyroptotic LDH release,,"2 µM, 40 min, added: LPS then nigericin",,inhibition,-23.8%
Cn1cc(-c2ccc(-c3cncc(Cl)c3N3CCC4(CCNC4=O)CC3)cc2)cn1,COLO 205,"gene expression, microarray, measured: RSU1 mRNA",,"concentration not given, 2 h",relative to: untreated cells,log2 fold change,2.71
CCn1cc(-c2cc(Cn3ccnc3)cc3c2CCN([C@H](c2cc(OC)ccn2)C2CC2)C3=O)c(C(F)(F)F)n1,OV7,"cell growth, inhibitor",,120 h,,EC50,> 30000 nM
Cc1ccn2c(CNc3ccc(F)cc3)c(-c3ccccn3)nc2c1,Leishmania infantum,,MHOM/MA(BE)/67/ITMAP263,120 h,relative to: CC50 macrophages over EC50 amastigotes,selectivity index,5
Fc1ccccc1Nc1nc(NCC2CCCO2)c2ccccc2n1 (centres unmarked),Renilla luciferase reporter mRNA,"in vitro translation, inhibitor",Trypanosoma cruzi translation extract,5 µM,,inhibition,20.6%
Cc1cc(OC(C)C)ccc1C(=O)C(C)(C)NC(=O)c1sccc1C,Alternaria alternata,mycelial growth,"Japanese pear pathotype, PSA medium","20 °C, suspension concentrate 400 g/L",,EC50,0.99 µg/mL
O=C(/C=C/C=C/C=C/C1CCCCC1)NC1=C[C@@](O)(/C=C/C=C/C=C/C(=O)NC2=C(O)CCC2=O)[C@@H]2O[C@@H]2C1=O,NCI-H82,"cell growth, CellTiter-Glo",,78 h,,GI50,78.7 nM
CC(C)C[C@H](NC(=O)C[C@H](O)[C@H](CC(C)C)NC(=O)[C@H](Cc1c[nH]cn1)NC(=O)CNC(=O)[C@@H](NC(=O)[C@H](C)NC(=O)[C@H](Cc1c[nH]c2ccccc12)NC(=O)[C@H](CCC(N)=O)NC(=O)[C@@H](Cc1ccccc1)NC(=O)COCCOCCNC(=O)CCC(C(=O)O)N1CCN(CC(=O)O)CCN(CC(=O)O)CCN(CC(=O)O)CC1)C(C)C)C(N)=O (some centres unmarked) [lutetium-177 labelled],,,"BALB/c nu/nu mice, PC-3 xenograft tumour","750 pmol, 1 h, added: PA 300 µg",,tissue uptake,6 ± 1.3 %ID/g
CC[C@H]1[C@@H](O)[C@@H]2[C@H](CC[C@]3(C)[C@@H]([C@H](C)CCNC(=O)NS(=O)(=O)c4ccc(C(C)(C)C)cc4)CC[C@@H]23)[C@@]2(C)CC[C@@H](O)C[C@@H]12,"Cytochrome P450 3A4 (CYP3A4, Homo sapiens, UniProt P08684)",substrate,"human, plasma","10 mg, alone, study day 1",,elimination rate constant mean,0.0674 h⁻¹
Oc1ccccc1-c1n[nH]cc1-c1ccnc2ccccc12,KSP1 (Candida albicans),"kinase binding, MIB/MS competition",Candida albicans lysate,10 µM,relative to: DMSO,log2 fold change,0.17
OC(CCN1CCCCC1)(c1ccccc1)C1CC2C=CC1C2 (centres unmarked),,resting-state EEG,healthy elderly humans,"oral, 4 mg, eyes closed, LS mean",,EEG Alpha1-power Pz-O1,11 µV²
CC(=O)OC/C=C(\C)CCC=C(C)C,THP-1,pyroptotic LDH release,,"2 µM, 40 min, added: LPS then nigericin",,inhibition,12.9%
Fc1ccc(Nc2c(-c3ccccn3)nc3ncccn23)cc1,Leishmania infantum,,"macrophages, MHOM/MA(BE)/67/ITMAP263, amastigote",,,IC50,33200 nM and > 64000 nM
O=C(O)CNC(=O)Cc1ccccc1,,,"ventricular cardiomyocytes, C57BL/6 mouse","dose not given, 0.464 s",,sarcomere length,1.7 µm
FC(F)(F)Oc1ccc(-c2c(-c3ccccn3)nc3n2CCC3)cc1,Leishmania infantum,,"macrophages, MHOM/MA(BE)/67/ITMAP263, amastigote",,,IC50,1290 nM and 350 nM
COc1cnc2cccc(N3CCc4c(cc(Cn5ccnc5C)cc4-c4cn(C)nc4C(F)(F)F)C3=O)c2c1,JHUEM7,cell growth,,120 h,,EC50,6630 nM
C=CS(=O)(=O)c1ccc(Nc2nc(OCC3CCCCC3)c3nc[nH]c3n2)cc1,THP-1,pyroptotic LDH release,,"2 µM, 40 min, added: LPS then nigericin",,inhibition,95.5%
CN(c1ccc(F)cc1)c1c(-c2ccc(F)cn2)nc2ccccn12,Leishmania infantum,,MHOM/MA(BE)/67/ITMAP263,120 h,relative to: CC50 macrophages over EC50 amastigotes,selectivity index,50.1
O=C(Nc1nc2cccc(-c3ccc(CN4CCS(=O)(=O)CC4)cc3)n2n1)C1CC1,,measured: hypotension,human rheumatoid arthritis patients,"oral, 30 mg once daily, 4 weeks, regardless of relatedness",,treatment-emergent adverse events,0%
Cc1ccc(-c2c(-c3ccccn3)nc3n2CCC3)cc1,Leishmania infantum,,"macrophages, MHOM/MA(BE)/67/ITMAP263, amastigote",,,IC50,630 nM and 320 nM
CCn1cc(-c2cc(Cn3ccoc3=N)cc3c2CCN([C@@H](C)c2cc(OC)ccn2)C3=O)c(C(F)(F)F)n1,NCI-H1975,"cell growth, inhibitor",,120 h,,EC50,5.92 nM
C[C@H](CCC(=O)O)[C@H]1CC[C@H]2[C@@H]3C[C@H](O)[C@@H]4C[C@H](O)CC[C@]4(C)[C@H]3CC[C@]12C,THP-1,pyroptotic LDH release,,"2 µM, 40 min, added: LPS then nigericin",,inhibition,-9.76%
COc1cc2c(c(O)c1OC)C(=O)c1c(cc(C)c(O)c1OC)C2=O,HK-2 co-cultured with HepaRG,MTT,,"133.33 µM, 48 h",relative to: untreated control,cell viability,34.1 ± 1.43%
CCOc1ccc2nc3cc(N)ccc3c(N)c2c1,THP-1,pyroptotic LDH release,,"2 µM, 40 min, added: LPS then nigericin",,inhibition,5.44%
CCN1CCN(Cc2ccc(Nc3ncc(F)c(-c4cc(F)c5nc6n(c5c4)[C@H](C)CCC6)n3)nc2)CC1,,,human advanced solid tumours,"100 mg, phase Ia monotherapy RECIST 1.1",,non-CR/non-PD,0%
Cc1ccc2nc(-c3ccccc3)cn2c1,Leishmania infantum,,MHOM/MA(BE)/67/ITMAP263,120 h,relative to: CC50 macrophages over EC50 amastigotes,selectivity index,1
N#C/C(=C1/SC[C@@H](c2ccc(Cl)cc2Cl)S1)n1ccnc1,THP-1,pyroptotic LDH release,,"2 µM, 40 min, added: LPS then nigericin",,inhibition,26%
